# Measured values gathered from unrelated publications.
# Values joined by “and” are separate records of one study, mostly repeats; a detail may differ. ± gives the spread as reported.
SMILES,organism,assay,test system,conditions,how to read,quantity,result
Cc1ccc(NS(=O)(=O)c2c(C(=O)N3CCCCCC3)c(C)n(C)c2C)c(Cl)c1,Vaccinia virus,viral infection,HaCaT,"1.235 µM, 36 h",reference: untreated,infection,18% and 30.9% and 24.5%
CC(=O)OCCOCn1cnc(C#N)c1C#N,Mammarenavirus lassaense,"viral replication, inhibitor",Vero,48 h,,IC50,10 µg/mL
CC(NC(=O)NNS(=O)(=O)c1ccc(OC(F)F)cc1)(C(F)(F)F)C(F)(F)F,Tacaribe mammarenavirus,viral replication,,,,EC50,0.066 µg/mL
COC(=O)c1ncn(CCOP(=O)(O)O)c1C(=O)OC,Mammarenavirus lassaense,viral replication,Vero,48 h,,IC90,> 50 µg/mL
O=S(=O)(Nc1ccccc1)c1ccc(N=C=S)cc1,Escherichia coli,,"HeLa, EHEC",5 nM,,attaching and effacing lesions,decreased
CC(C)CC(C(=O)N1CC2(CC1C#N)C(=O)Nc1ccccc12)N(C)C(=O)c1cc2c(F)cc(F)c(F)c2[nH]1 (stereo not drawn),SARS-CoV-2,"viral replication, infectious virus",Vero E6,3.333 µM,,inhibition,99.6%
CCN1CCC(CN2c3ccccc3Sc3ccccc32)C1 (stereo not drawn),SARS coronavirus,,"Vero 76, Urbani",,,EC90,11 ± 3.9 µM
O=C(C=Cc1ccc(O)c(O)c1)OC1CC(O)(C(=O)O)CC(OC(=O)C=Cc2ccc(O)c(O)c2)C1O (stereo not drawn),Severe acute respiratory syndrome coronavirus 2,"cytopathic effect, inhibitor",Vero C1008,3.125 µM,,inhibition,0%
Cc1ccc(N2CC3CC(C2)N3C)cc1C(=O)NC1(c2ccc3c4c(cccc24)C(=O)N3C)CC1,SARS-CoV-2,viral replication,"Vero C1008, Omicron BA.5","0.005716 µM, 72 h",,inhibition,0%
O=[N+]([O-])c1ccc(C2=[N+]([O-])c3ccccc3N3CCCN=C23)cc1,Clostridium perfringens,microbial growth,,,,MIC50,0.5 µg/mL
CN1CCN(C(=O)N[C@@H](Cc2ccccc2)C(=O)N[C@H](/C=C/S(=O)(=O)c2ccccc2)CCc2ccccc2)CC1,Junin virus,pseudovirus entry,Vero,,,IC50,> 0.1 µM
[O-][N+]1=C(c2ccccc2)C2=NCCN2c2ccccc21,Clostridium perfringens,,,,,MIC90,1 µg/mL
Nc1nc(Nc2ccc(Cl)c(Cl)c2)nn1S(=O)(=O)c1ccc2ccccc2c1,Powassan virus,viral replication,"BHK-21, LB",,,EC50,5 µM
O=[N+]([O-])c1ccc(Oc2ccccc2)c(O)c1,Francisella tularensis,bacterial growth,LVS,,,MIC90,0.21 ± 0.05 µg/mL
CC[C@H](C)[C@H](NC(=O)[C@H](CCCCN)NC(=O)[C@H](CCCCN)NC(=O)[C@H](CC(C)C)NC(=O)[C@H](Cc1c[nH]c2ccccc12)NC(=O)CN)C(=O)NCC(=O)N[C@@H](CCCCN)C(=O)N[C@@H](CCCCN)C(=O)N[C@H](C(=O)N[C@@H](CCC(=O)O)C(=O)N[C@@H](CCCNC(=N)N)C(=O)N[C@H](C(=O)NCC(=O)N[C@@H](CCC(N)=O)C(=O)N[C@@H](Cc1c[nH]cn1)C(=O)N[C@H](C(=O)N[C@@H](CCCNC(=N)N)C(=O)N[C@@H](CC(=O)O)C(=O)N[C@@H](C)C(=O)N[C@H](C(=O)N[C@H](C(=O)N[C@@H](CCC(N)=O)C(=O)N[C@H](C(=O)N[C@H](C(=O)NCC(=O)N[C@H](C(=O)N[C@@H](C)C(=O)N[C@@H](CCC(N)=O)C(=O)N[C@@H](CCC(N)=O)C(=O)N[C@@H](C)C(=O)N[C@@H](C)C(=O)N[C@@H](CC(N)=O)C(=O)N[C@H](C(=O)N[C@@H](C)C(=O)N[C@@H](C)C(=O)N[C@H](C(=O)N[C@@H](CC(C)C)C(=O)N[C@@H](CCCCN)C(N)=O)[C@@H](C)O)C(C)C)C(C)C)[C@@H](C)CC)[C@@H](C)O)[C@@H](C)CC)[C@@H](C)O)[C@@H](C)O)C(C)C)[C@@H](C)CC,Acinetobacter baumannii,broth microdilution,"RKI 19/09, CAMHB with 10% mouse serum",,,MIC,0.25 µg/mL
O=[N+]([O-])c1ccc(-n2nc(-c3ccc(F)cc3)cc2-c2ccc(F)cc2)c([N+](=O)[O-])c1,Japanese encephalitis virus,plaque,"Neuro2a, SA14-14-2","15 µM, 72 h, post-treatment",,viral particle reduction,≤ 90%
Cc1cc(C)cc([C@@H]2C[C@H]2C(=O)N[C@H](C(=O)NCc2ccccc2)c2ccc(C)c(C)c2)c1,Chikungunya virus,"viral protein expression, Western blot, item: nsP1, nsP2, capsid",BHK-21,6 h,,effective concentration,> 50 µM
[O-][N+]1=C(c2ccsc2)C2=NCCCN2c2ccccc21,Clostridium perfringens,microbial growth,,,,MIC50,4 µg/mL
N#Cc1ncn(COCCOCc2ccccc2)c1C#N,Mammarenavirus lassaense,viral replication,Vero,48 h,,IC90,28 µg/mL
[O-][N+]1=C(c2ccc(Cl)cc2)C2=NCCCN2c2ccccc21,Clostridium perfringens,,,,,MIC90,64 µg/mL
O=S(=O)(O)c1cccc(-c2c3nc(c(-c4cccc(S(=O)(=O)O)c4Cl)c4ccc([nH]4)c(-c4cccc(S(=O)(=O)O)c4Cl)c4nc(c(-c5cccc(S(=O)(=O)O)c5Cl)c5ccc2[nH]5)C=C4)C=C3)c1Cl,vaccinia virus,viral replication,"CV-1, IHD-J",,,EC50,1 ± 0.1 µg/mL

# Some of these lines once more:
SMILES,organism,assay,test system,conditions,how to read,quantity,result
O=[N+]([O-])c1ccc(C2=[N+]([O-])c3ccccc3N3CCCN=C23)cc1,Clostridium perfringens,microbial growth,,,,MIC50,0.5 µg/mL
CN1CCN(C(=O)N[C@@H](Cc2ccccc2)C(=O)N[C@H](/C=C/S(=O)(=O)c2ccccc2)CCc2ccccc2)CC1,Junin virus,pseudovirus entry,Vero,,,IC50,> 0.1 µM
